Results gathered from unrelated publications.
Every numbered part comes from another study and shows a few of its results, in no order. Changes are numbered by the printed parent chain.

Set 1
Target: CCNA1, cyclin fold, Cln2 fusion (human)
Method: yeast growth competition, sequencing
Matrix: yeast
Setting: weak parent motif
Baseline: not given
Direction: higher = stronger binding
Starting sequence: CDAN1 docking peptide (human); RGARSQLFPPTEA
| Substitution | normalised enrichment score |
| --- | --- |
| RGARSQLFPPAEA [T11A] | 0.25 |
| RGARSQLFPATEA [P10A] | 0.414 |
| RGARSQLAPPTEA [F8A] | 0.467 |
| RGARSALFPPTEA [Q6A] | 0.0638 |
| RGARSQLFPPTAA [E12A] | 0.119 |
| RGAASQLFPPTEA [R4A] | 0.0398 |

Set 2
Target: Interferon regulatory factor 5, full length, phosphomimetic (IRF5, Homo sapiens, UniProt Q13568-2, residues 1-514, K96S/S451D/S453D/S456D/S462D)
Method: protein-binding microarray
Form: double-stranded DNA, one strand shown
Matrix: in vitro
Tested at: 250 nM
Setting: 60-bp whole probe
With: salmon DNA 0.4 mg/ml
Baseline: random background probes
Direction: higher = stronger binding
Shared flanks, not repeated: GCCTAGCAC … GTCTTGATTCGCTTGACGCTGCTG
| Oligonucleotide | log fluorescence [z-score] |
| --- | --- |
| GACGGTATCGGTCACGGGACGTGCTAG | 5.61 |
| TTCGATTTCGGGTATCGATTAGTGCTA | 7.98 |
| TGGGTAATGCTTCTGTATTCGTGCTAG | 0.0388 |
| TTAGGTTTCAGACTGGATTAGTGCTAG | 1.03 |
| TCAATTATGAGTCTTGAACTGTGCTAG | 0.0697 |
| TGTGTTTTCACTTTTCCTACGTGCTAG | 4.47 |
| CCGCCGCCTGGCTGGGGGATGTGCTAG | -0.755 |
| GACGGTATCAGTTTCGAGACGTGCTAG | 6.57 |
| TCATGGTTCTGCTTCTTACTGTGCTAG | 0.0953 |
| GTTTCTCTTTCCTTCTTGATGTGCTAG | 5.3 |
| GACGGTTTCCACTTTCGGGACGTGCTA | 6.3 |
| TTAGGGCTCCTTTTCCTTTAGTGCTAG | -0.215 |
| TTTTTTTTTTTTGTATTTTTGTGCTAG | 1.89 |
| TTAGGACTGGGACTGGCTTAGTGCTAG | -0.585 |
| GACGGTATCAGTTTCGGGACGTGCTAG | 7.14 |
| TTAGATCTCAGTCTCGAATAGTGCTAG | 0.373 |
| TCATGTCTCTGTCCCTGACTGTGCTAG | -0.0143 |
| TCACTTTTCAGTCCCCTACTGTGCTAG | 1.11 |
| TTAGATTTCGGATATCGATTAGTGCTA | 5.32 |
| ATGTATATATGTGTATATATGTGCTAG | 0.24 |
| GACTGTTTCCTACTGCTGACGTGCTAG | 0.71 |
| GACGGTATTGGACTGGGGACGTGCTAG | -0.238 |
| GACGGTTTCCTTTTCCTTACGTGCTAG | 1.27 |
| GACGATTTCGGGTTTCGCGACGTGCTA | 3.58 |
| GACGGTATCGGTATCGGGACGTGCTAG | 6.44 |

Set 3
Target: Prothrombin, mature alpha-thrombin (F2, Homo sapiens, UniProt P00734)
Method: aptamer microarray, sandwich
Form: DNA with 2'F-ANA
Matrix: in vitro
Tested at: 200 nM
Setting: whole 15-mer aptamer, many near background
With: Cy3 exosite-II aptamer, 400 nM
Direction: higher = stronger binding
Oligonucleotide: GGTTGGTGTGGTTGG
| Modification | mean fluorescence intensity [a.u.] |
| --- | --- |
| 2'F-ANA at 2 4 7 10 11 13 14 | 63.2 |
| 2'F-ANA at 1 2 3 7 8 12 14 15 | 127 |
| 2'F-ANA at 3 4 8 12 13 14 15 | 325 |
| 2'F-ANA at 4 7 9 10 11 12 15 | 105 |
| 2'F-ANA at 1 3 6 7 8 9 10 11 12 | 120 |
| 2'F-ANA at 1 2 3 6 7 8 10 11 13 15 | 61.3 |
| 2'F-ANA at 1 4 5 6 8 9 10 11 14 | 55.7 |
| 2'F-ANA at 1 2 4 5 7 9 12 13 15 | 67.8 |
| 2'F-ANA at 4 5 8 12 13 | 94.2 |
| 2'F-ANA at 1 3 8 10 13 14 | 64 |
| 2'F-ANA at 1 2 4 5 6 10 11 14 15 | 53 |
| 2'F-ANA at 2 3 4 7 10 | 322 |
| 2'F-ANA at 2 3 4 5 6 11 12 14 | 54.9 |
| 2'F-ANA at 1 7 14 15 | 59.4 |
| 2'F-ANA at 1 4 6 9 12 14 | 92.7 |
| 2'F-ANA at 2 3 4 6 9 12 13 14 15 | 221 |
| 2'F-ANA at 4 5 6 8 10 11 12 13 14 | 49.5 |
| 2'F-ANA at 9 15 | 551 |

Set 4
Target: ABI1, truncated, D143A, DHFR fusion (Arabidopsis thaliana)
Method: DHFR PCA, deep sequencing
Matrix: yeast
Setting: methotrexate growth selection, single substitutions
With: (+)-ABA 17 µM
Baseline: wild-type fitted maximum
Direction: higher = stronger binding
Starting sequence: PYL1, truncated, DHFR fusion (Arabidopsis thaliana); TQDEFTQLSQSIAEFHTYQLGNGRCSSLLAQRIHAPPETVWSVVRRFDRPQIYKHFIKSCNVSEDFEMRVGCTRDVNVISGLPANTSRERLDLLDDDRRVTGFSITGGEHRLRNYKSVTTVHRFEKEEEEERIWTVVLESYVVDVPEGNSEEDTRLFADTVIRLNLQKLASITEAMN; partner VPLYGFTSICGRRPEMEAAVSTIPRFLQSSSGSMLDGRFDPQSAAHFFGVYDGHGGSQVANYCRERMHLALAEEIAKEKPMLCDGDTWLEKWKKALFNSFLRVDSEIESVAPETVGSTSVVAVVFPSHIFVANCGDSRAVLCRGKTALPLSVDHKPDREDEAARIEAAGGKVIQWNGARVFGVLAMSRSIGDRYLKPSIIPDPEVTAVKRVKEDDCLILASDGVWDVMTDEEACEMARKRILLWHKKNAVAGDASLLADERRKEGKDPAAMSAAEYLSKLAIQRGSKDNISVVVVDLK
| Substitution | relative binding score [%] |
| --- | --- |
| S140Q | -5.49 |
| C72A | 92 |
| I79V | 91.6 |
| R88S | 77.3 |
| R74S | -7.99 |
| L156C | 90.9 |
| T39K | 82.5 |
| S42N | 86.1 |
| T106D | 23 |
| Q7E | 83.2 |
| L82W | 37.6 |
| R45H | 6.09 |
| I162W | -17 |
| T120D | -0.67 |
| L8I | 56.8 |
| P83L | 5.27 |

Mixed results
| Molecule | target | test | test system | setting | scale | measurement | value |
| --- | --- | --- | --- | --- | --- | --- | --- |
| PhoQ, residues 284 288 289 292 302 303 TAVSDG | PhoP, residues 12 14 15 18 19 DLLYY (Escherichia coli, UniProt P23836) | Sort-seq, item: YFP reporter | E. coli | PhoQ-PhoP variant library, with: 10 µM Mg2+ | baseline: high Mg2+ state, higher = stronger signaling | fold induction | 0.835 |
